Assay results pooled from the literature.
Parts stem from different laboratories: compare values within a part only. Positions count from the first letter of the parent shown.

Series 1 — method: aptamer microarray, sandwich; form: DNA with 2'F-ANA; medium: in vitro; tested at: 200 nM; with: Cy3 exosite-II aptamer, 400 nM; reading: higher = stronger binding; sequence: GGTTGGTGTGGTTGG
Target: Prothrombin, mature alpha-thrombin (F2, Homo sapiens, UniProt P00734)
Notes: whole 15-mer aptamer, many near background
Modification | mean fluorescence intensity [a.u.]
2'F-ANA at 1 2 3 6 8 9 11 | 203
2'F-ANA at 2 6 7 8 9 11 12 14 | 147
2'F-ANA at 1 5 6 7 13 | 46.3
2'F-ANA at 1 2 4 6 9 12 | 270
2'F-ANA at 1 4 5 7 9 10 11 13 14 15 | 50.6
2'F-ANA at 2 5 6 7 8 9 10 11 | 49.1
2'F-ANA at 1 4 7 8 10 11 12 13 14 | 41.7
2'F-ANA at 3 4 6 9 10 11 13 | 252
2'F-ANA at 1 2 4 5 7 8 10 11 12 14 | 47.7
2'F-ANA at 2 4 8 10 11 14 | 60.8
2'F-ANA at 2 4 5 8 10 12 13 15 | 53.3
2'F-ANA at 1 2 3 4 5 7 8 9 10 11 12 15 | 84.7
2'F-ANA at 1 2 4 7 8 10 13 15 | 48
2'F-ANA at 1 2 6 9 11 13 14 | 69.4
2'F-ANA at 2 3 5 6 8 9 10 12 13 15 | 54.4
2'F-ANA at 2 6 7 10 15 | 131
2'F-ANA at 1 3 4 5 7 8 10 13 15 | 49.1
2'F-ANA at 1 3 5 7 8 11 13 15 | 56.4
2'F-ANA at 1 2 3 4 5 10 11 12 | 53.5
2'F-ANA at 1 2 4 5 6 7 10 12 | 52.2
2'F-ANA at 3 5 8 9 10 12 14 15 | 53.3
2'F-ANA at 1 2 4 7 12 13 | 218
2'F-ANA at 1 3 4 5 6 8 11 14 15 | 51.4
2'F-ANA at 1 3 4 5 6 9 11 13 14 15 | 46.9

Series 2 — target: CCNE1, cyclin fold, Cln2 fusion (human); method: yeast growth competition, sequencing; medium: yeast; notes: weak parent motif; relative to: not given; reading: higher = stronger binding
Starting sequence: SLBP docking peptide (human); ARYKRKLLINDFG
Change | normalised enrichment score
L8R | 0.106
K4L | 1.46
G13L | -0.599
K6I | 0.66
K4I | 0.62
A1N | 0.843
D11G | 0.325
I9H | 1.16
F12D | 0.627
Y3R | 0.0131
F12K | -0.0485
R2D | 1.08
K4N | 0.82
L7T | -0.0508
L7V | 0.235
F12S | 0.0937
Y3L | 0.763
L8N | 0.955
R5Q | -0.282
K6E | 0.128
Y3E | 0.304
G13A | 0.047
Y3Q | 0.39
R5N | 0.0677
N10L | 1.78

Series 3 — method: RNA Bind-n-Seq; form: RNA; medium: in vitro; tested at: 1 µM; notes: whole 134-nt RNA, ends assumed; with: 150 mM KCl; relative to: input library; reading: higher = stronger binding
Target: Ras GTPase-activating protein-binding protein 1, RRM domain (G3BP1, Homo sapiens, UniProt Q13283)
UniProt Q13283, sequence (whole entry, looked up): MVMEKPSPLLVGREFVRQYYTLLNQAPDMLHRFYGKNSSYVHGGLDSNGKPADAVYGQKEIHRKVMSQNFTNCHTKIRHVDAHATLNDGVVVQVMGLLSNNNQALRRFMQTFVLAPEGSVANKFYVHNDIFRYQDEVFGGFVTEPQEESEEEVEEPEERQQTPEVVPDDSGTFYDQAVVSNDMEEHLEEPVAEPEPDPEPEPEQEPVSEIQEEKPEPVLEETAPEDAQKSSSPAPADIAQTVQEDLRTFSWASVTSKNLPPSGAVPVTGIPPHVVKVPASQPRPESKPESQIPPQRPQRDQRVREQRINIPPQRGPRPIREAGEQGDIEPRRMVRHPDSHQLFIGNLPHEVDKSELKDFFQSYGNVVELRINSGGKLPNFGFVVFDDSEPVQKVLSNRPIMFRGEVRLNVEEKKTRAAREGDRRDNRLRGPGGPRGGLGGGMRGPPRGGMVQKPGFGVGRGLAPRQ
Sequence | log2 enrichment
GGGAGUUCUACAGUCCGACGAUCUGGCCCUGGUGGCAUGCGGGGAGGAAGAGGUGGCCUCAUGGAUCGUGGUGGUCCCGGUGGCAUGUUCAGAGGUGGCCGUGGUGGAGACAGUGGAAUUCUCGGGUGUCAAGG | 1.01
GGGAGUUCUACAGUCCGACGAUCUGUGACAGGAGAGCGCUUGAAGAGCAAUGUGACGAGGACCAUCAGACACCGAGGGAUGGAGAGACAUCCCACAGGGCCCAGAUUCAGCAGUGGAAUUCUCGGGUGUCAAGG | -0.0962
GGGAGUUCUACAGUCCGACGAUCCCUCAAGUCCUGUGCUACACAUCGUAUGUACCGAAUCGGGAGGGGAGGAGGGGAAAGUAUUAUGUUACGCCGUUCGGAUCUGCACUUCCAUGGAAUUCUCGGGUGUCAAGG | 0.275
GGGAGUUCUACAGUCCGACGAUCUGGCCCUGGUGGCAUGCGGGGAGGAUGAGGUGGCCUCAUGGAUCGUGGUGGUCCCGGUGGAAUGUUCAGAGGUGGCCGUGGUGGAGACAGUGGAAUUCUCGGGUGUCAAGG | 0.977
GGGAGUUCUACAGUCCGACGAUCUCCUGUGCUACACAUCGUAUGUACCGAAUCGGGGUUUGGGGUUUUUGGGGUUUUUGGGGAAAGUAUUAUGUUACGCCGUUCGGAUCUGCAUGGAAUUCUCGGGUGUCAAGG | 1.58
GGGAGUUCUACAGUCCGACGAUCGCAGGAAGUAAAAACAAAUGGAAAUGUUUCGGAUAGUGGCAGGGGUGGGGGUUGCUAAGGAAAGGGUGGGAUGGGAGUGGGUAAAGAGUUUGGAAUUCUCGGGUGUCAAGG | 0.872
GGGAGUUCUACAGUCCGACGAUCUCCUGUGCUACACAUCGUAUGUACCGAAUCGGGGAAAAAAAGGGGUUUGGGGAAAGGGGAAAGUAUUAUGUUACGCCGUUCGGAUCUGCAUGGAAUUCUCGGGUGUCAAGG | 1.24
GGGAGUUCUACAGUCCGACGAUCACCAUGCAGGUGGGCAUCUUUGGGAAGUGGGGCAAGGGGGGGAUAGGGAGGGAAAUAACACUUUGGGAACAGGUGGUCCCAGGUCGUUUCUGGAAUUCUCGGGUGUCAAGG | -0.356
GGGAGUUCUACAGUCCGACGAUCCUCAAGUCCUGUGCUACACAUCGUAUGUACCGAAUCGGGGUGGGUGGGGUGGGGAAAGUAUUAUGUUACGCCGUUCGGAUCUGCACUUCCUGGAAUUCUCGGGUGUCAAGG | 0.116

Series 4 — method: protein binding microarray; form: double-stranded DNA, one strand shown; medium: in vitro; tested at: not given; relative to: not given; reading: higher = stronger binding
Target: Histone acetyltransferase KAT6A, winged helix 2, GST fusion (KAT6A, Homo sapiens, UniProt Q92794, residues 85-181)
Notes: 8-mer, flanks averaged, mean of 2 arrays, mostly near background
Target sequence (chain): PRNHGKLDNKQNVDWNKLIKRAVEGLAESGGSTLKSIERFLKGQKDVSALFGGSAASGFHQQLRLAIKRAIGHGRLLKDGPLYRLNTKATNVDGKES
Sequence | E-score
GACAAGTA | -0.139
ACAGAGCG | -0.0319
ACACCCGT | -0.0783
ATAATTGC | 0.00938
CAACGCCG | 0.171
AACAAATG | -0.0665
GGTCTGGA | 0.0111
AAGCGTTG | -0.024
GCGCGACC | 0.2
ACACCAGG | 0.0144
CCTCACCG | -0.0512
ATCGGCGC | 0.0917
CTATAGTC | -0.291
ATGGTCGA | -0.07
CTCAACCA | 0.0732
CAAGAAGA | 0.0925
CGAGCGCG | 0.181
TAAGCACA | 0.101
GCGAATAC | 0.0197
CACTCACG | 0.0625
ACACGCGG | 0.198
CGGTGTCA | 0.0287
TCAATTGA | 0.0724
AAATCGTT | -0.136

Mixed results
Molecule | target | assay | test system | setting | scale | quantity | value
PhoQ, residues 284 288 289 292 302 303 NLMGRA | PhoP, residues 12 14 15 18 19 LHSVW (Escherichia coli, UniProt P23836) | Sort-seq, item: YFP reporter | E. coli | PhoQ-PhoP variant library, with: 10 µM Mg2+ | relative to: high Mg2+ state, higher = stronger signaling | fold induction | 6.27
